Experimental data of several laboratories.
Lines come from different studies, so protocols differ. Several values in a cell are separate wells, animals, samples, runs or records. ± gives the spread as reported.
SLCO2B1: Solute carrier organic anion transporter family member 2B1 (SLCO2B1, Homo sapiens, UniProt O94956)
Sequence of UniProt O94956 (whole entry, looked up): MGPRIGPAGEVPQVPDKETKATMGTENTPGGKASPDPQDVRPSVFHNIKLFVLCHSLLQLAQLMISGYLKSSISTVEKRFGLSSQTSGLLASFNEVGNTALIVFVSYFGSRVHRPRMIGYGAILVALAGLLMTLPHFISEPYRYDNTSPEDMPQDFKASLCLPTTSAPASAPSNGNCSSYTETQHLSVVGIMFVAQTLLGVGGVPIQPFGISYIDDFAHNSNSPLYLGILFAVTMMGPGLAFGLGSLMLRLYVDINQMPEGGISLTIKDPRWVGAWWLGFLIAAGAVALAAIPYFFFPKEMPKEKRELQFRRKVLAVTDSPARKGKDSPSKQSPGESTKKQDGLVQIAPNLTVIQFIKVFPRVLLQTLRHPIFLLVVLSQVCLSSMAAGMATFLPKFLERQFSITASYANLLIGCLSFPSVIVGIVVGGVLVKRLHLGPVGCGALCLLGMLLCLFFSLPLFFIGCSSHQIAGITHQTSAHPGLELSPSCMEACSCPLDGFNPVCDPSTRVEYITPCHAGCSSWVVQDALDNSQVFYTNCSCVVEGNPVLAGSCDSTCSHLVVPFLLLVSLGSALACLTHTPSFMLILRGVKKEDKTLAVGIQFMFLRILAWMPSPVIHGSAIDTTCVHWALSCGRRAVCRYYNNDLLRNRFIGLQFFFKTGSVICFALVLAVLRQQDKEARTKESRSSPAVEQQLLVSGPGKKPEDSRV
ALB: Albumin (ALB, Bos taurus, UniProt P02769)
Sequence of UniProt P02769 (whole entry, looked up): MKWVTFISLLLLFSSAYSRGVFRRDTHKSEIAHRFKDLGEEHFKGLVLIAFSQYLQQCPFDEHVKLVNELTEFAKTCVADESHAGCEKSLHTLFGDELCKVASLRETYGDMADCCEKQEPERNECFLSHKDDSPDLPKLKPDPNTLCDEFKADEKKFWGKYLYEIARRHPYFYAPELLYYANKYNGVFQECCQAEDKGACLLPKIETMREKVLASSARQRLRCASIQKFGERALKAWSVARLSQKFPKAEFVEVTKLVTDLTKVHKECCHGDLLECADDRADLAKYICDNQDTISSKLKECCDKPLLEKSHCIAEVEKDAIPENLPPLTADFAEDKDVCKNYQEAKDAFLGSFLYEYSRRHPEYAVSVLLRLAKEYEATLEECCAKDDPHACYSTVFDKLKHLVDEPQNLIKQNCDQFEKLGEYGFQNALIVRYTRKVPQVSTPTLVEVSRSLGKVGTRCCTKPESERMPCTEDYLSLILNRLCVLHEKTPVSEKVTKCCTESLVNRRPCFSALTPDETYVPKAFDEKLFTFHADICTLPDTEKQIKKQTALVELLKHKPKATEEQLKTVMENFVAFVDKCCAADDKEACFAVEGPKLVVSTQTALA
Sequence of UniProt P10632 (whole entry, looked up): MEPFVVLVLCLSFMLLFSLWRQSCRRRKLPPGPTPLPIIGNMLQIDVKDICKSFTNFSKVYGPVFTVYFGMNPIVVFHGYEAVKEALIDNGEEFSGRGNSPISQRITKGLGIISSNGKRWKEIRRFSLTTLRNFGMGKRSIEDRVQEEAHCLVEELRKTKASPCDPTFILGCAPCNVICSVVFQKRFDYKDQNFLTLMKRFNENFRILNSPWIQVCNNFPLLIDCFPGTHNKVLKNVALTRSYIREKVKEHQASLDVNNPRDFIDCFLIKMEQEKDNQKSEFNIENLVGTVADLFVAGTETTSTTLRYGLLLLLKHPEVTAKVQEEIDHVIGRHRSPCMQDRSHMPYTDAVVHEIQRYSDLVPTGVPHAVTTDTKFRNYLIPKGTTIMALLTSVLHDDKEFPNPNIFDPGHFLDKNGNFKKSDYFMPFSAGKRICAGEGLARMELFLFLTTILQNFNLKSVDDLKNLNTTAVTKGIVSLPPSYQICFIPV

SMILES | target | test | test system | conditions | how to read | measurement | value
O=C(c1ccc(OCCN2CCCCC2)cc1)c1c(-c2ccc(O[C@@H]3O[C@H](C(=O)O)[C@@H](O)[C@H](O)[C@H]3O)cc2)sc2cc(O)ccc12 | SLCO2B1 | – | HEK293 expressing SLCO2B1 | pH 7.4 | – | intrinsic clearance | 6.91 µL/min/mg protein
O=C(Nc1cc(-c2ccnc3[nH]ccc23)c(Cl)cn1)[C@H]1CCC[C@@H](NC(=O)C(F)(F)F)C1 | P-glycoprotein (MDR1) | – | MDCK-MDR1 cells | basolateral to apical | – | Papp | 40.2 ×10⁻⁶ cm/s
CN1CCN(c2ccc3[nH]c(-c4ccc5[nH]c(-c6ccc(OCCCCNC(=O)c7ccc8c(c7)C7(OC8=O)c8ccc(N(C)C)cc8[Si](C)(C)c8cc(N(C)C)ccc87)cc6)nc5c4)nc3c2)CC1 | ALB | binding, fluorescence titration | PBS | 1 h | – | Kd | 361 ± 87 µM
Cc1ncc2[nH]c(=O)n(-c3cnc(Oc4cccc5c4C(C)(C)CO5)c(Cl)c3)c2n1 | P-glycoprotein, rat | – | – | – | – | efflux ratio | 1.4
CO[C@@H]1[C@H](OP(=O)(O)OC[C@H]2O[C@@H](n3cnc4c(=O)[nH]c(N)nc43)[C@H](O)[C@@H]2O)[C@@H](COP(=O)(O)OP(=O)([O-])O[P@](O)(=S)OC[C@H]2O[C@@H](n3c[n+](C)c4c(=O)[nH]c(N)nc43)[C@H](O)[C@@H]2O)O[C@H]1n1cnc2c(N)ncnc21 | m7GpppN-mRNA hydrolase (DCP2, Homo sapiens, UniProt Q8IU60) | substrate | – | short capped RNA | relative to: AG-CleanCap RNA | decapping susceptibility | no effect
O=C(c1ccc(OCCN2CCCCC2)cc1)c1c(-c2ccc(O)cc2)sc2cc(O[C@@H]3O[C@H](C(=O)O)[C@@H](O)[C@H](O)[C@H]3O)ccc12 | SLCO2B1 | – | HEK293 expressing SLCO2B1 | pH 7.4 | – | intrinsic clearance | 3.21 µL/min/mg protein
CN(C)c1ccc2c(c1)[Si](C)(C)c1cc(N(C)C)ccc1C21OC(=O)c2ccc(C(=O)O)cc21 | ALB | binding, fluorescence titration | PBS | – | – | Kd | 9.9 ± 0.5 µM
O=c1[nH]c2cccnc2n1-c1ccc2c(c1)OC1(CCCCC1)O2 | P-glycoprotein, rat | – | – | – | – | efflux ratio | 0.8
CN1CCN(c2ccc3[nH]c(-c4ccc5[nH]c(-c6ccc(OCCCCNC(=O)c7cccc8c7C(=O)OC87c8ccc(N(C)C)cc8[Si](C)(C)c8cc(N(C)C)ccc87)cc6)nc5c4)nc3c2)CC1 | ALB | binding, fluorescence titration | PBS | 1 h | – | Kd | 557 ± 520 µM
CNC(=O)C1CCCN(C(=O)C2CC3CCC2N3C(=O)[C@@H]2C[C@@H](O)CN2C(=O)NCc2cccc(Cl)c2F)C1 (mixture of isomers) | Cytochrome P450 2C8 (CYP2C8, Homo sapiens, UniProt P10632) | preincubation without NADPH | human | 50 µM | relative to: negative control | remaining activity | 93.4% and 101%

Excerpt of the above:
SMILES | target | test | test system | conditions | how to read | measurement | value
O=c1[nH]c2cccnc2n1-c1ccc2c(c1)OC1(CCCCC1)O2 | P-glycoprotein, rat | – | – | – | – | efflux ratio | 0.8
